# Results pooled from the literature.
# Parts stem from different laboratories: compare values within a part only.

# Set 1
# Target: RNA binding protein fox-1 homolog 2, RRM domain, GST-SBP tag (RBFOX2, Homo sapiens, UniProt O43251-10, residues 100-194)
# Technique: RNA Bind-n-Seq
# Form: RNA
# Sample: in vitro
# Tested at: 365 nM
# Setting: natural RNA segment, single round, ends assumed
# Relative to: no-protein control
# Direction: higher = stronger binding
# Construct (chain): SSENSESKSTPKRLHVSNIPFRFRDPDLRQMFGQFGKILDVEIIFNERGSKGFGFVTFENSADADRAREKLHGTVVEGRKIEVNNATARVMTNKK
Sequence,RBNS enrichment (R)
GGGAGUUCUACAGUCCGACGAUCCUAGGCUAAAAUUUCAACUGUUUUAGUCAUAGAUUUUUAGCAUCUUUGUUAGAUCAGCAUAUAAUUCAUAUAACUACUUAAGUUUUUAUGAUGUAUCAUCAAUUUUAUUAUGGAAUUCUCGGGUGCCAA,0.457
GGGAGUUCUACAGUCCGACGAUCGUCUGCGGUCACAGUGGCCCCUGGGCAGGGGCACCCAGGCUGACCCUGAGGUGCUGCUGCUGGGUCUGUCUUGGCUCUGGGGUGUGCUGGGAGGGUCACCAGGUCCCUUUUGGAAUUCUCGGGUGCCAA,0.246
GGGAGUUCUACAGUCCGACGAUCCCCAAAAAGCUCCUAUUAAUUUGCUUAUCCCCCUCAUGUAGCUAGUUGAAUGUGAAUAAAUAACAUGAAAAAAAGGCCACUUUUGUCUUUGUUUUUCCAGGUUAAUGGGAUGGAAUUCUCGGGUGCCAA,1.05
GGGAGUUCUACAGUCCGACGAUCUCUCUGCUCAAAGCUGCCUGUCUCCAGCCCAGACCUUUGCUGGGUGCACCAGAGCAUCUCAGCAGGCAGGCAUUUUGUGGCAUUUAUGGCCUGUCACUCCCUGUAUUUCUUGGAAUUCUCGGGUGCCAA,0.468

# Set 2
# Target: Interferon regulatory factor 5, full length, phosphomimetic (IRF5, Homo sapiens, UniProt Q13568-2, residues 1-514, S451D/S453D/S456D/S462D)
# Technique: protein-binding microarray
# Form: double-stranded DNA, one strand shown
# Sample: in vitro
# Tested at: 940 nM top
# Setting: 60-bp whole probe
# With: salmon DNA 0.4 mg/ml
# Relative to: random background probes
# Direction: higher = stronger binding
# Shared flanks, not repeated: GCCTAGCAC … GTGCTAGGTCTTGATTCGCTTGACGCTGCTG
Sequence,fitted relative affinity [z-score]
TTAGATCTCAGTCTCGACTA,1.58
AGAAACTGTGAGGAGGGGAA,2.68
TTAGGTTTCATTTTCCTTTA,6.75
GACGAACTGAGTATCGACAC,1.69
TTAGATTCCCTTTTCCTTTA,0.846

# Set 3
# Target: Sal-like protein 4, full length isoform B (SALL4, Homo sapiens, UniProt Q9UJQ4-2, residues 1-616)
# Technique: universal PBM
# Form: double-stranded DNA, one strand shown
# Sample: in vitro
# Tested at: not given
# Setting: 8-mer, flanks averaged, mean of replicates
# Direction: higher = stronger binding
# Target sequence (chain): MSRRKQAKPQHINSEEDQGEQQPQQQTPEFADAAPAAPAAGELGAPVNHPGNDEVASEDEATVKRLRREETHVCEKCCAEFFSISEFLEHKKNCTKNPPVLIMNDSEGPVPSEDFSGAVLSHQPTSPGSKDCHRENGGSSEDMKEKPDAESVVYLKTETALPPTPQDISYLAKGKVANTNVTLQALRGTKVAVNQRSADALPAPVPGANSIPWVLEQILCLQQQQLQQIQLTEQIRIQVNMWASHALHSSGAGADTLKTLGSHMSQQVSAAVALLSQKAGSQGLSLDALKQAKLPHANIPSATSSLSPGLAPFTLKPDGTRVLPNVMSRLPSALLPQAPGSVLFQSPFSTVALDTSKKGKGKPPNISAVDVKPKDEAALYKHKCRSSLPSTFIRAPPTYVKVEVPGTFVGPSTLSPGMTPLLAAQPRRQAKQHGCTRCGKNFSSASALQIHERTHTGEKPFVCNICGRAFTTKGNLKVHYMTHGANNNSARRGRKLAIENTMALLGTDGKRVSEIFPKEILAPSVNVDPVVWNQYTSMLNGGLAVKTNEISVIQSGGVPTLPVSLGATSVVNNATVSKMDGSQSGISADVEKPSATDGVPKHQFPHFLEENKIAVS
Sequence,E-score
CTGCGAGA,-0.309
CCGAGACG,-0.204
CCTTGCAG,-0.294
GACAAGTA,0.00228

# Single results of other studies
Substance,target,assay,test system,setting,how to read,endpoint,result
"PhoQ, residues 284 288 289 292 302 303 SSLVEF","PhoP, residues 12 14 15 18 19 AQALL (Escherichia coli, UniProt P23836)","Sort-seq, measured: YFP reporter",E. coli,"PhoQ-PhoP variant library, with: 10 µM Mg2+","relative to: high Mg2+ state, higher = stronger signaling",fold induction,14.7
